Assay results pooled from the literature.
Compare with care: the assays were run in different laboratories. “And” joins repeats or separate records; there may be more than shown. ± gives the spread as reported.
Sequence of UniProt O75676 (whole entry, looked up): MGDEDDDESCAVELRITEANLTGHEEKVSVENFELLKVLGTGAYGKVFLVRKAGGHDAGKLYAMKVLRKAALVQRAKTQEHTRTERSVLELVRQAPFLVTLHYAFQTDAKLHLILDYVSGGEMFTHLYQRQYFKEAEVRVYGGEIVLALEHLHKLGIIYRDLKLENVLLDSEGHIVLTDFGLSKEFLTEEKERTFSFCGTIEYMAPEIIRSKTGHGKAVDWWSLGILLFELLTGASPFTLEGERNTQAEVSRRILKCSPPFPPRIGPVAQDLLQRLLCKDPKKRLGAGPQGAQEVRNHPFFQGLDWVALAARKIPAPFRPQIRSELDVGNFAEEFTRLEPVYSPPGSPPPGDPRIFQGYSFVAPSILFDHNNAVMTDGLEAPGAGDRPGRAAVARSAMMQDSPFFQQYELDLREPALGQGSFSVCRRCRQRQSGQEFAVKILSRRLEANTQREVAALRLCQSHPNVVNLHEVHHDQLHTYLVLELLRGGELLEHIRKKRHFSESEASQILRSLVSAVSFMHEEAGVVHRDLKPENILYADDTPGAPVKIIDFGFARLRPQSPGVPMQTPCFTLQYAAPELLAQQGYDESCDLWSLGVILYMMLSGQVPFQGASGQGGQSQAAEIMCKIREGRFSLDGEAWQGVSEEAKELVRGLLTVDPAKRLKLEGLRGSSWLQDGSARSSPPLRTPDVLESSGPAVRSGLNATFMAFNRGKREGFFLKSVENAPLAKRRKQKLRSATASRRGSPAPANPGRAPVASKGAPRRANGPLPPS
Sequence of UniProt P07332 (whole entry, looked up): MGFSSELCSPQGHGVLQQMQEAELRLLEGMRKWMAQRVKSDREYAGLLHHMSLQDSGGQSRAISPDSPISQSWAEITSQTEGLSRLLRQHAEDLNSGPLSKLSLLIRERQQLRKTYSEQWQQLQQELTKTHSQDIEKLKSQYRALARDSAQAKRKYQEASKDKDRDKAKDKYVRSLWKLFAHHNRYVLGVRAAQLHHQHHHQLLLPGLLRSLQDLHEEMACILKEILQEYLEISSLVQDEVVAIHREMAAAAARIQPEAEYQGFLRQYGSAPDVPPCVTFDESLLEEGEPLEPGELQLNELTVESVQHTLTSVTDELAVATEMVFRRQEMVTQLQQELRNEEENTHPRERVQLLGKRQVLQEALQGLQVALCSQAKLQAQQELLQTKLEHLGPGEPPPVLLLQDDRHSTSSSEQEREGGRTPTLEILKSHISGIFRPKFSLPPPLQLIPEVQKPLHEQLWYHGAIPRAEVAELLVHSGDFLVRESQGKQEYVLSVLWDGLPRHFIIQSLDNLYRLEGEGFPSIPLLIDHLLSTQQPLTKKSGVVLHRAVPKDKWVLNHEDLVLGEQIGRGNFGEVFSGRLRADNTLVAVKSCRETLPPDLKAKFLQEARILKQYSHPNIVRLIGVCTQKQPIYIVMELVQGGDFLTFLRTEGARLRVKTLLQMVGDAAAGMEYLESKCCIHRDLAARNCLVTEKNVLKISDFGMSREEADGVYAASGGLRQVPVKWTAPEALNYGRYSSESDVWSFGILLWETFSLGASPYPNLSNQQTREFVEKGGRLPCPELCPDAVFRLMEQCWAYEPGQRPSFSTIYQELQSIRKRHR

Compound	tested on	assay	system	conditions	scale	endpoint	value
CS(C)(=O)=Nc1ccc(-c2ccc(-c3nc4cc(O[C@@H]5CO[C@H]6[C@@H]5OC[C@H]6O)[nH]c4cc3F)cc2)cc1	FES (Homo sapiens, UniProt P07332)	enzyme activity, inhibitor		10 µM		inhibition	-26%
CC(CCC(=O)NCC(=O)O)C1CCC2C3CCC4CC(OC5OC(C(=O)O)C(O)C(O)C5O)CCC4(C)C3CC(O)C12C (stereo not drawn)			women, C/C genotype, plasma	dose not given, geometric mean		glucuronide to parent ratio	2.72
C=CC(=O)Nc1cccc(Cn2ncc3cnc(Nc4cnn(CCOC)c4)nc32)c1			male Sprague-Dawley rat	oral, 180 mg/kg/day, day 28, 28-day subacute toxicity		serum HDL	0.58 ± 0.15 mM
CC(C)C[C@H](NC(=O)CNC(=O)[C@H](CCC(N)=O)NC(=O)[C@H](CC(C)C)NC(=O)[C@H](CC(C)C)NC(=O)[C@H](CCCNC(=N)N)NC(=O)[C@H](CCC(N)=O)NC(=O)[C@H](CC(C)C)NC(=O)[C@H](CCCNC(=N)N)NC(=O)[C@H](C)NC(=O)CNC(=O)[C@H](CCC(=O)O)NC(=O)[C@H](CCCNC(=N)N)NC(=O)[C@H](CC(C)C)NC(=O)[C@H](CCCNC(=N)N)NC(=O)[C@H](CO)NC(=O)[C@H](CC(C)C)NC(=O)[C@H](CCC(=O)O)NC(=O)[C@H](CO)NC(=O)[C@@H](NC(=O)[C@H](Cc1ccccc1)NC(=O)[C@@H](NC(=O)CNC(=O)[C@H](CC(=O)O)NC(=O)C(C)(C)NC(=O)[C@@H](N)Cc1c[nH]cn1)[C@@H](C)O)[C@@H](C)O)C(=O)N[C@@H](CC(C)C)C(=O)N[C@@H](CCC(N)=O)C(=O)NCC(=O)N[C@@H](CC(C)C)C(=O)N[C@H](C(=O)NCC(=O)N[C@@H](CCCCNC(=O)COCCOCCNC(=O)COCCOCCNC(=O)CC[C@H](NC(=O)CCCCCCCCCCCCCCCCC(=O)O)C(=O)O)C(N)=O)C(C)C			DIO C57BL/6J mice	sc, 300 nmol/kg twice daily, 8 days		water intake	no effect
CC(C)(C)C(=O)OCOP(=O)(OCOC(=O)C(C)(C)C)C1CCCN(O)C1=O (stereo not drawn)	MCF7					CC50	83.5 µM
C#Cc1c(F)ccc2cc(O)cc(-c3ncc4c(N5CC6CCC(C5)N6C(=O)OC(C)OC(=O)CC5CCOCC5)nc(OC[C@@]56CCCN5C[C@H](F)C6)nc4c3F)c12 (stereo partly drawn)		measured: prodrug	mouse whole blood	1 µM		t1/2	4.13 min
CC(C)[C@H](NC(=O)[C@H](Cc1ccccc1)NC(=O)[C@H](Cc1ccccc1)NC(=O)OCC1c2ccccc2-c2ccccc21)C(=O)N[C@@H](CCC(=O)O)C(=O)N[C@@H](CCC(=O)O)C(N)=O			mouse, blood	intravenous, 10 mg/kg, single dose		MRT	16.2 min
Nc1nonc1-c1nnc2c(n1)-c1ccccc1C2=O			Balb/c mouse	intraperitoneal, 30 mg/kg, 3 weeks, repeated injections		mortality	66.7%
CSCC[C@H](N)C(=O)N[C@@H](C)C(=O)N[C@@H](CCCNC(=N)N)C(=O)N[C@@H](CCCNC(=N)N)C(=O)N[C@@H](CC(=O)O)C(=O)N[C@@H](CCCCN)C(=O)N[C@H](C(=O)N[C@@H](CC(=O)O)C(=O)N[C@@H](Cc1ccccc1)C(=O)N[C@@H](C)C(=O)N[C@@H](CCCNC(=N)N)C(=O)N[C@@H](CCCNC(=N)N)C(=O)N[C@@H](CCCNC(=N)N)C(=O)N[C@@H](CCCNC(=N)N)C(=O)NCCCCCC(=O)NCCCCC(NC(=O)CCCCCNC(=O)[C@H](CCCNC(=N)N)NC(=O)[C@H](CCCNC(=N)N)NC(=O)[C@H](CCCNC(=N)N)NC(=O)[C@H](CCCNC(=N)N)NC(=O)[C@H](C)NC(=O)[C@H](Cc1ccccc1)NC(=O)[C@H](CC(=O)O)NC(=O)[C@@H](NC(=O)[C@H](CCCCN)NC(=O)[C@H](CC(=O)O)NC(=O)[C@H](CCCNC(=N)N)NC(=O)[C@H](CCCNC(=N)N)NC(=O)[C@H](C)NC(=O)[C@@H](N)CCSC)[C@@H](C)O)C(=O)NCCCCC(NC(=O)C(CCCCNC(=O)CCCCCNC(=O)[C@H](CCCNC(=N)N)NC(=O)[C@H](CCCNC(=N)N)NC(=O)[C@H](CCCNC(=N)N)NC(=O)[C@H](CCCNC(=N)N)NC(=O)[C@H](C)NC(=O)[C@H](Cc1ccccc1)NC(=O)[C@H](CC(=O)O)NC(=O)[C@@H](NC(=O)[C@H](CCCCN)NC(=O)[C@H](CC(=O)O)NC(=O)[C@H](CCCNC(=N)N)NC(=O)[C@H](CCCNC(=N)N)NC(=O)[C@H](C)NC(=O)[C@@H](N)CCSC)[C@@H](C)O)NC(=O)CCCCCNC(=O)[C@H](CCCNC(=N)N)NC(=O)[C@H](CCCNC(=N)N)NC(=O)[C@H](CCCNC(=N)N)NC(=O)[C@H](CCCNC(=N)N)NC(=O)[C@H](C)NC(=O)[C@H](Cc1ccccc1)NC(=O)[C@H](CC(=O)O)NC(=O)[C@@H](NC(=O)[C@H](CCCCN)NC(=O)[C@H](CC(=O)O)NC(=O)[C@H](CCCNC(=N)N)NC(=O)[C@H](CCCNC(=N)N)NC(=O)[C@H](C)NC(=O)[C@@H](N)CCSC)[C@@H](C)O)C(N)=O)[C@@H](C)O (stereo partly drawn)			C57BL/6 mouse female, stomach	dose not given, 3 h	baseline: total	tissue distribution	31.6% and 47.8% and 53.4%
C=C/C=C/C[C@@H](C)[C@@H](O)[C@H]1C(=O)N[C@@H](CC)C(=O)N(C)CC(=O)N(C)[C@@H](CC(C)C)C(=O)N[C@@H](C(C)C)C(=O)N(C)[C@@H](CC(C)C)C(=O)N[C@@H](C)C(=O)N[C@H](C)C(=O)N(C)[C@@H](CC(C)C)C(=O)N(C)[C@@H](CC(C)C)C(=O)N(C)[C@@H](C(C)C)C(=O)N1C			male Wistar Kyoto rat	intraperitoneal, 0.5 mg/kg/day, day 18		body weight	303 ± 13 g
O=C1NC2(CC2)COc2ncc(F)cc2[C@H]2COCCN2c2ccn3ncc1c3n2			Sprague-Dawley rat, male, blood	oral, 20 mg/kg/day, 4 weeks, end of recovery, subacute toxicity		lymphocyte percentage	81.7 ± 5.9%
CSCC[C@H](NC(=O)CNC(=O)[C@H](CCCCN)NC(=O)[C@H](CC(C)C)NC(=O)[C@@H]1CCCN1C(=O)[C@H](CO)NC(=O)[C@H](Cc1c[nH]cn1)NC(=O)[C@H](Cc1c[nH]c2ccccc12)NC(=O)[C@H](CCCNC(=N)N)NC(=O)[C@H](CC(C)C)NC(=O)[C@H](CCCNC(=N)N)NC(=O)[C@H](Cc1c[nH]c2ccccc12)NC(=O)[C@H](CS)NC(=O)CCCCCNC(=O)CN1CCN(CC(=O)O)CCN(CC(=O)O)CCN(CC(=O)O)CC1)C(=O)O [copper-64 labelled]		PET imaging	BALB/c nude mice, kidney	intravenous, dose not given, 55 h, Huh-7 tumour-bearing		tissue uptake	2.74 ± 0.2 %ID/g
COc1cnc2cccc(N3CCc4c(cc(Cn5ccnc5)cc4-c4cn(C)nc4C(F)(F)F)C3=O)c2c1			CD-1 mice	intraperitoneal, 50 mg/kg once daily, day 3		body weight	28.8 ± 1 g
COc1ccc(CNc2ccc3c(c2)S(=O)(=O)C=C3)cc1			male C57BL/6 mice, blood	intraperitoneal, 20 mg/kg, day 8, group average		plateletcrit	4.74 mL/L
N#[11C]c1ccc(-c2csc(NN=C3CCCC3)n2)cc1			C57BL/6 mouse, male	intravenous, 3 MBq, 30 min		uptake in stomach with contents	7.9 ± 1.53 %ID/g
CC[C@H](C)[C@H](NC(=O)[C@H](CCCCN)NC(=O)CNC(=O)[C@H](CC(C)C)NC(=O)[C@H](Cc1ccccc1)NC(=O)[C@H](CCCCN)NC(=O)[C@H](CO)NC(=O)[C@H](Cc1ccccc1)NC(=O)[C@H](Cc1c[nH]c2ccccc12)NC(=O)[C@H](CCC(N)=O)NC(=O)[C@@H](NC(=O)[C@H](Cc1ccccc1)NC(=O)CCCCCNC(=O)CN1CCN(CC(=O)O)CCN(CC(=O)O)CCN(CC(=O)O)CC1)C(C)C)C(=O)N[C@@H](CCC(=O)O)C(=O)N1CCC[C@H]1C(=O)N[C@@H](CC(=O)O)C(=O)N[C@H](C(=O)N[C@@H](CO)C(=O)N[C@@H](CCC(N)=O)C(=O)N[C@H](C(=O)N[C@@H](CCC(N)=O)C(=O)N[C@@H](CC(=O)O)C(=O)N1CCC[C@H]1C(=O)N[C@@H](CC(N)=O)C(=O)N[C@@H](CC(=O)O)C(=O)N[C@@H](CCC(N)=O)C(=O)N[C@@H](Cc1ccc(O)cc1)C(=O)N[C@@H](CCC(=O)O)C(=O)N1CCC[C@H]1C(=O)N[C@@H](Cc1ccccc1)C(=O)O)C(C)C)C(C)C [copper-64 labelled]			C57BL/6 mice, male, naive, brown fat	4 h		tissue uptake	3.25 ± 0.8 %ID/g
COCC12CCC(OC)C34C5CC6(O)C(OC)C(O)C(O)(C5C6OC(=O)c5ccccc5)C(C(OC)C13)C4N(C)C2 (stereo not drawn)			Sprague-Dawley rat, plasma	oral, dose not given, in PCW extract		MRT(0-t)	289 ± 9.78 min
CC[C@H](C)[C@H](NC(=O)[C@H](CO)NC(=O)[C@H](Cc1ccc(O)cc1)NC(=O)[C@H](Cc1ccc(O)cc1)NC(=O)[C@H](CC(N)=O)NC(=O)CNC(=O)[C@H](CO)NC(=O)[C@H](Cc1ccc(O)cc1)NC(=O)[C@H](CO)NC(=O)[C@H](CO)NC(=O)[C@H](CC(N)=O)NC(=O)COCCOCCNC(=O)CN1CCN(CC(=O)O)CCN(CC(=O)O)CCN(CC(=O)O)CC1)C(=O)N[C@@H](CC(C)C)C(N)=O [copper-64 labelled]		dynamic PET	tamoxifen-induced PDAC mouse model, metastases	9.5 min, CLDN4-expressing tumours		maximum metastasis uptake	24.4 %IA/cc
C/C(=N\OCCCN1CCCCC1)c1ccc(C(F)(F)F)cc1			mouse, plasma	oral, 150 mg/kg once daily, day 1		AUC(0-t)	29100 ± 2170 ng·h/mL
CC(C)[C@@H]1NC(=O)CNC(=O)[C@H](CC(N)=O)NC(=O)[C@H](CCCNC(=N)N)NC(=O)[C@H](Cc2ccc(O)cc2)NC(=O)[C@H](C(C)C)NC(=O)[C@@H](NC(=O)[C@@H](NC(=O)[C@H](CC(N)=O)NC(=O)[C@H](Cc2c[nH]c3ccccc23)NC(=O)[C@H](C)NC(=O)[C@H](Cc2ccccc2)NC(=O)CNC(=O)[C@H](CCCCN)NC(=O)[C@H](Cc2ccccc2)NC(=O)[C@H](Cc2ccccc2)NC(=O)[C@H](CCCCN)NC(=O)OCC2c3ccccc3-c3ccccc32)C(C)C)CSSC[C@@H](C(=O)N[C@@H](Cc2c[nH]cn2)C(=O)N[C@@H](CCCNC(=N)N)C(=O)N[C@@H](CCCNC(=N)N)C(=O)N[C@@H](C)C(=O)N[C@@H](CC(N)=O)C(N)=O)NC(=O)[C@H](C(C)C)NC(=O)[C@H](CCCNC(=N)N)NC1=O			ICR mice, serum	intraperitoneal, 5 mg/kg, day 5		calcium	1.36 ± 0.03 mmol/L
Cc1nnc(-c2ccc(CC(=O)NCCCC[C@H](NC(=O)c3ccc(OCc4ccc(B(O)O)cc4)c(-c4nc5ccccc5c(=O)[nH]4)c3)C(=O)NCC(=O)NCC(=O)NCC(=O)N[C@@H](Cc3ccccc3)C(=O)N[C@@H](Cc3ccccc3)C(=O)O)cc2)nn1		UPLC-MS/MS	human serum	100 µM, 3 h, 37 °C		remaining compound	74.3% and 82%
CN1Cc2cc(Cl)ccc2-n2c(nnc2C2CCN(c3cccc([18F])n3)CC2)C1		PET two-tissue compartment model	rhesus monkey, thalamus	intravenous, dose not given, 60 min scan, baseline scan		total volume of distribution	1.1 ± 0.31 mL/cm3
CC(=O)NCCCC[C@@H]1NC(=O)[C@H](Cc2c[nH]c3c(C)cccc23)NC(=O)[C@H]([C@@H](C)O)NC(=O)[C@H](CC(N)=O)NC(=O)[C@@H](NC(C)=O)C(C)(C)SSC(C)(C)[C@@H](C(=O)N[C@@H](Cc2ccc(OCCN)cc2)C(=O)N[C@@H](Cc2ccc3ccccc3c2)C(=O)NC2(C(=O)N[C@@H](CCC(=O)O)C(=O)N[C@@H](CC(N)=O)C(=O)N[C@@H](Cc3cccnc3)C(=O)N(C)CC(N)=O)CCOCC2)NC1=O		equilibrium dialysis	rabbit, plasma	1 µM		plasma protein binding	71.8 ± 0.4%
CN(C)[C@H]1C[C@@]23CC[C@@]4(O2)C(=CC[C@]2(C)[C@@H](c5ccc6ccncc6c5)CC[C@H]24)C=C3[C@@H](O)[C@@H]1O	Ribosomal protein S6 kinase alpha-4, N-terminal kinase domain (RPS6KA4, Homo sapiens, UniProt O75676)	ATP probe labelling, inhibitor, KiNativ profiling		0.1 µM		inhibition	4%

For quick reference, copied from above:
Compound	tested on	assay	system	conditions	scale	endpoint	value
C=C/C=C/C[C@@H](C)[C@@H](O)[C@H]1C(=O)N[C@@H](CC)C(=O)N(C)CC(=O)N(C)[C@@H](CC(C)C)C(=O)N[C@@H](C(C)C)C(=O)N(C)[C@@H](CC(C)C)C(=O)N[C@@H](C)C(=O)N[C@H](C)C(=O)N(C)[C@@H](CC(C)C)C(=O)N(C)[C@@H](CC(C)C)C(=O)N(C)[C@@H](C(C)C)C(=O)N1C			male Wistar Kyoto rat	intraperitoneal, 0.5 mg/kg/day, day 18		body weight	303 ± 13 g
CC(C)[C@H](NC(=O)[C@H](Cc1ccccc1)NC(=O)[C@H](Cc1ccccc1)NC(=O)OCC1c2ccccc2-c2ccccc21)C(=O)N[C@@H](CCC(=O)O)C(=O)N[C@@H](CCC(=O)O)C(N)=O			mouse, blood	intravenous, 10 mg/kg, single dose		MRT	16.2 min
